{"data": "Experimental data pooled from the literature", "note": "Every numbered part comes from another study and shows a few of its results, in no order."}
{"data": "Block 1", "target": "Sal-like protein 4, full length isoform A (SALL4, Homo sapiens, UniProt Q9UJQ4, residues 1-1053)", "technique": "universal PBM", "molecule type": "double-stranded DNA, one strand shown", "sample": "in vitro", "tested at": "600 nM", "notes": "8-mer, flanks averaged, mean of replicates", "direction": "higher = stronger binding", "chain of UniProt Q9UJQ4 (whole entry, looked up)": "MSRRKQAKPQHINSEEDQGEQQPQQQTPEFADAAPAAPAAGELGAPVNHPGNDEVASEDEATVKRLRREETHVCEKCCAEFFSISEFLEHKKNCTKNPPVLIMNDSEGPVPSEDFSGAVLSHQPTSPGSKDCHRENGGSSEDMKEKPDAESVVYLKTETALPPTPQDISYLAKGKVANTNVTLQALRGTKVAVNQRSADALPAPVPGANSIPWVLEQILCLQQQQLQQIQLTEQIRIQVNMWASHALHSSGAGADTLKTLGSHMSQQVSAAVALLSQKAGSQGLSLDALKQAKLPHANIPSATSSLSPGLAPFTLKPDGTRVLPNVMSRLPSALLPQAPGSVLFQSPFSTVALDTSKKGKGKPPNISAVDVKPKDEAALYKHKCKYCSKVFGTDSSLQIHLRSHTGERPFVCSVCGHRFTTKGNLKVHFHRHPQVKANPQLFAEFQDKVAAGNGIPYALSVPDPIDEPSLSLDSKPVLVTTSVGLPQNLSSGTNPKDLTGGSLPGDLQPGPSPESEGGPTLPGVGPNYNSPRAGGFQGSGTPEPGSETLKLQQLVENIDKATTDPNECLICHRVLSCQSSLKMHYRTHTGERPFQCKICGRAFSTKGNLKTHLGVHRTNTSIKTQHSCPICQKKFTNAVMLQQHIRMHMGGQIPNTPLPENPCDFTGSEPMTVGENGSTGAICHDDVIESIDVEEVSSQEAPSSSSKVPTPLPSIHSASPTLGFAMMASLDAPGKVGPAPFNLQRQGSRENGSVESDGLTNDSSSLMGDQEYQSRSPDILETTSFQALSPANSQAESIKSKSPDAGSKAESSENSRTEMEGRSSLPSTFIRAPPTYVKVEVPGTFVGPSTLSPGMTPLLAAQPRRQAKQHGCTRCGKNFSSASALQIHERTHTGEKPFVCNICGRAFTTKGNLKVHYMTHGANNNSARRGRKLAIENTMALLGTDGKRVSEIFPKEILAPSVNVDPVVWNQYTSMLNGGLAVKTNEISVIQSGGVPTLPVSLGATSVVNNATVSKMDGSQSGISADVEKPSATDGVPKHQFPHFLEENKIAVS"}
{"Sequence": "GCGGACCA", "E-score": -0.23}
{"Sequence": "AGCAGCGC", "E-score": -0.294}
{"Sequence": "CCAGTTAA", "E-score": 0.201}
{"Sequence": "AGGCGAAC", "E-score": -0.248}
{"Sequence": "ACTACTCT", "E-score": -0.0184}
{"Sequence": "ATCATCCC", "E-score": 0.0699}
{"Sequence": "CGGGCGTC", "E-score": -0.274}
{"Sequence": "AATGGAAT", "E-score": 0.216}
{"data": "Block 2", "target": "RNA binding protein fox-1 homolog 2, RRM domain, GST-SBP tag (RBFOX2, Homo sapiens, UniProt O43251-10, residues 100-194)", "technique": "RNA Bind-n-Seq", "molecule type": "RNA", "sample": "in vitro", "tested at": "365 nM", "notes": "natural RNA segment, single round, ends assumed", "baseline": "no-protein control", "direction": "higher = stronger binding"}
{"Sequence": "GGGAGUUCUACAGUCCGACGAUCUCUAAUACCUCACUCAUUGACACGUGAGCAACACAAAGACAUUCACAAGGGCCGGCAUCACCAGACCAGCUGAGGACAACUCAGACUGACAGUUGGACAAACAUUGCGACUGGAAUUCUCGGGUGCCAA", "RBNS enrichment (R)": 0.44}
{"Sequence": "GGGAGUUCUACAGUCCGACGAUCGGAAAUCAUGUUCUUUUUUUAUAUCUCUAUAUAUAAGAUACAGAGUUGUUUGGUAAGGUUUGGGGUGUUUUUUGUUUUGUUUUGUUUUAAGUUUCCAAACAACCAAACUAUGGAAUUCUCGGGUGCCAA", "RBNS enrichment (R)": 2.93}
{"Sequence": "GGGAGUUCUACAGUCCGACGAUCUGAUAUUUAUGUACAUAUUAAGAUAAAUGUCAUGUGUAAGAUAACUGAUAAAUAUUGGAACUUUGCUAGAACAAGACCCUGUAGUAAUAGUAAUAAUAGUUGAAGUUUGGUGGAAUUCUCGGGUGCCAA", "RBNS enrichment (R)": 0.601}
{"Sequence": "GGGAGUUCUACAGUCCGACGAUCGGUUUGUUUGUUUUUGGGGAAAUUUUGAAAAGUGGAGUUGAUAUUAAAAAUAAAUGUGUAUGUGUGUACAUAUAUAUACACACACAUACACAUAUAUUAUGCAUGUGGUGUGGAAUUCUCGGGUGCCAA", "RBNS enrichment (R)": 22.2}
{"Sequence": "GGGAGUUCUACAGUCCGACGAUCGAGAGUCCCAUGCCACCCGUCCCCUUGUGACCUCCCCCCUCUGACCUCCAGCUGACCAUGCAUGCCACGUGGCUGGCUGGGUCCUCUGCCCUCUCUGGAGUUUGCCUCCCUGGAAUUCUCGGGUGCCAA", "RBNS enrichment (R)": 5.9}
{"Sequence": "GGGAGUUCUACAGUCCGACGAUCUAUGUGGAAGGUAAAAAUAGUGGUGUGAUCAUGAACCAAAGGAAUUUAUGUUUUGUAACUUGGGUACUUUAUUUUGCAUUUUGUUAUACUAUUAAAUAAUUUUUUCCUGUUGGAAUUCUCGGGUGCCAA", "RBNS enrichment (R)": 1.38}
{"Sequence": "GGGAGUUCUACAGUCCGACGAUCUCAGAGGAGUUAUACUUUGAGGAGAAAACGCAAGAAAGGAAAAGAAAGCAAUUGCAAGAAAGGCGUUGAACAUGAAAAAAUAAAAAGUACCUUAAGAAGGCACAUAUAUAUGGAAUUCUCGGGUGCCAA", "RBNS enrichment (R)": 0.497}
{"data": "Block 3", "target": "Histone acetyltransferase KAT6A, both winged helices, GST fusion (KAT6A, Homo sapiens, UniProt Q92794, residues 1-181)", "technique": "protein binding microarray", "molecule type": "double-stranded DNA, one strand shown", "sample": "in vitro", "tested at": "not given", "notes": "8-mer, flanks averaged, mean of 2 arrays, mostly near background", "baseline": "not given", "direction": "higher = stronger binding", "Construct (chain)": "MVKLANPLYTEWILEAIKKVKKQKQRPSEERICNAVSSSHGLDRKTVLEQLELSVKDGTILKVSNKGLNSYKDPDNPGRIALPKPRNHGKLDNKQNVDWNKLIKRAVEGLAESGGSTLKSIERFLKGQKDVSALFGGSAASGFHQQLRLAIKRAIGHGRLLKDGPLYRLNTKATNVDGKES"}
{"Sequence": "CTAGTGCC", "E-score": 0.136}
{"Sequence": "ACCTGGGC", "E-score": -0.106}
{"Sequence": "GCGCGACC", "E-score": 0.296}
{"Sequence": "AGTCCCCC", "E-score": -0.0808}
{"Sequence": "ACGTTAAA", "E-score": 0.13}
{"Sequence": "ACGGCACA", "E-score": 0.207}
{"data": "Mixed results"}
{"Substance": "PhoQ, residues 284 288 289 292 302 303 ALAMYF", "target": "PhoP, residues 12 14 15 18 19 QYFSL (Escherichia coli, UniProt P23836)", "test": "Sort-seq, measured: YFP reporter", "system": "E. coli", "conditions": "PhoQ-PhoP variant library, together with: 10 µM Mg2+", "scale": "baseline: high Mg2+ state, higher = stronger signaling", "measurement": "fold induction", "result": 5.77}
{"note": "Some of these lines once more (block 1):"}
{"Sequence": "ACTACTCT", "E-score": -0.0184}
{"Sequence": "ATCATCCC", "E-score": 0.0699}
{"Sequence": "GCGGACCA", "E-score": -0.23}
{"Sequence": "CGGGCGTC", "E-score": -0.274}
